Measurements of several laboratories.
Protocols differ between the studies behind these lines. ± gives the spread as reported.
ALB: Albumin (ALB, Homo sapiens, UniProt P02768)
CYP3A4: Cytochrome P450 3A4 (CYP3A4, Homo sapiens, UniProt P08684)
Chain of UniProt P08684 (whole entry, looked up): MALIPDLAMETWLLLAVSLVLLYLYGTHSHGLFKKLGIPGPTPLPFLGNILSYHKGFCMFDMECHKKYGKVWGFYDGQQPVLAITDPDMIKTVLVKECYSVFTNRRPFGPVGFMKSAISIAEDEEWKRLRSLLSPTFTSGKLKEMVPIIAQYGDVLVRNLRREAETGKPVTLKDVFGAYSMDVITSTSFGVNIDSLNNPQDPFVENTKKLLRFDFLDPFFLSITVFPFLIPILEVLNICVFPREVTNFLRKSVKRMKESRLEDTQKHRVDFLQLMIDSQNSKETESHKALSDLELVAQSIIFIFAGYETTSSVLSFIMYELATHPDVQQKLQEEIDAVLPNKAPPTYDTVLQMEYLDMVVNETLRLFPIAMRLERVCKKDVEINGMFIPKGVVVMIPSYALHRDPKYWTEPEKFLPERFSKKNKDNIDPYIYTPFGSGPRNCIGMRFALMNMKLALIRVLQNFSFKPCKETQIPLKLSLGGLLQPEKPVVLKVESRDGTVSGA
Chain of UniProt P61073 (whole entry, looked up): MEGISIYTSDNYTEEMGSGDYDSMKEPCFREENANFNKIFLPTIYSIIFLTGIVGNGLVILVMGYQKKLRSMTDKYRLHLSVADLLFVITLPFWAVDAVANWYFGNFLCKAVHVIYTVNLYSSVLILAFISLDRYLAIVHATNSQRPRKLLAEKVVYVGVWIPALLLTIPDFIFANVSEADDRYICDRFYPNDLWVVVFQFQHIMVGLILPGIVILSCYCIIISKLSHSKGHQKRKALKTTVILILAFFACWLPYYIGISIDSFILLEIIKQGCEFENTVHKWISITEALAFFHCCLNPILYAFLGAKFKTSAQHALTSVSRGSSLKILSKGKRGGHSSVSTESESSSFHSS

SMILES	target	assay	test system	conditions	measurement	result
[64Cu+2].c1ccc(CNCc2ccc(CN3CCCNCCNCCCNCC3)cc2)nc1	CXCR4	–	NOD/SCID mouse, U87 and U87-stb-CXCR4 xenografts, kidney	iv, 90 min, no blocking dose, ex vivo	tissue uptake	34.8 ± 0.88 %ID/g
Cc1cc(C)c(-c2cc(C)c(OP(=O)([O-])OCCC[C@H](C(=O)[O-])N3CCN(CC(=O)[O-])CCN(CC(=O)[O-])CCN(CC(=O)[O-])CC3)cc2C)c(C)c1.[Gd+3]	ALB	albumin binding, variable temperature NMRD fit	albumin-bound complex	0.1 mM, pH 7.4, fit 5-35 °C data, with: HSA 0.66 mM	rotational correlation time	4.3 ns
CCCS(=O)(=O)c1ccc2[nH]c(NC(=O)OC)nc2c1	CYP3A4	–	human liver fractions	1 µM, 30 min, pH 7.4	metabolised	3.21%
CC(C)C[C@H](NC(=O)[C@H](C)NC(=O)[C@H](CC(C)C)NC(=O)[C@@H](NC(=O)CNC(=O)[C@H](CC(C)C)NC(=O)[C@@H](N)Cc1ccccc1)C(C)C)C(=O)N[C@@H](CC(C)C)C(=O)NCC(=O)N[C@H](Cc1ccc(O)cc1)C(=O)N[C@@H](CC(C)C)C(=O)N[C@@H](C)C(=O)N[C@H](C(=O)N[C@@H](CCCNC(=N)N)C(=O)N1CCC[C@H]1C(=O)N[C@H](Cc1ccccc1)C(=O)N[C@@H](CC(C)C)C(=O)N1CCC[C@H]1C(=O)N[C@@H](CCCCN)C(=O)N[C@H](CCCCN)C(=O)N[C@@H](CCCCN)C(=O)N[C@@H](CCC(N)=O)C(=O)N[C@@H](CCC(N)=O)C(=O)N[C@@H](CCCCN)C(N)=O)C(C)C	chymotrypsin	substrate, HPLC	–	450 µM, 540 min, 22 °C	peptide cleaved	65%
CN1C(=O)[C@@H](Cc2ccc(O)cc2)NC(=O)CNC(=O)[C@H](Cc2ccc3ccccc3c2)NC(=O)[C@H](CCCNC(=N)N)NC(=O)[C@H]1CCCNC(=O)c1ccc(CNC(=O)CN2CCN(CC(=O)O)CCN(CC(=O)O)CCN(CC(=O)O)CC2)cc1 [gallium-68 labelled]	CXCR4 (Homo sapiens, UniProt P61073)	PET imaging	human, tumor	–	SUVmax	23.3
CC(C)(O)c1ccccc1CC[C@H](c1cccc(/C=C/c2ccc3ccc(Cl)cc3n2)c1)S(=O)(=O)CC1(CC(=O)O)CC1	CYP3A4	–	human liver microsomes	2 µM, pH 7.4, with: midazolam	inhibition	0.42%
N=C(N)NCCC[C@H](NC(=O)[C@H](Cc1c[nH]c2ccccc12)NC(=O)[C@H](CCCCN)NC(=O)[C@H](CCCNC(=N)N)NC(=O)[C@H](Cc1c[nH]c2ccccc12)NC(=O)[C@H](CCCCN)NC(=O)[C@H](CCCNC(=N)N)NC(=O)[C@H](Cc1c[nH]c2ccccc12)NC(=O)[C@H](CCCCN)NC(=O)[C@H](CCCNC(=N)N)NC(=O)[C@@H](N)Cc1c[nH]c2ccccc12)C(=O)N[C@@H](CCCCN)C(N)=O	chymotrypsin	RP-HPLC	–	6 h, 37 °C	remaining peptide	< 10%
Cc1cc(C)c(-c2cc(C)c(OP(=O)([O-])OCCC[C@H](C(=O)[O-])N3CCN(CC(=O)[O-])CCN(CP(=O)([O-])O)CCN(CC(=O)[O-])CC3)cc2C)c(C)c1.[Gd+3]	ALB	variable temperature NMRD	HSA-bound complex	concentration not given	activation enthalpy of water exchange	6.55 kcal/mol
